# Measured values from different studies.
# Compare with care: the assays were run in different laboratories. ± marks the error that the study gave.
# TDP1: Tyrosyl-DNA phosphodiesterase 1 (TDP1, Homo sapiens, UniProt Q9NUW8)
# Sequence of UniProt Q9NUW8 (whole entry, looked up): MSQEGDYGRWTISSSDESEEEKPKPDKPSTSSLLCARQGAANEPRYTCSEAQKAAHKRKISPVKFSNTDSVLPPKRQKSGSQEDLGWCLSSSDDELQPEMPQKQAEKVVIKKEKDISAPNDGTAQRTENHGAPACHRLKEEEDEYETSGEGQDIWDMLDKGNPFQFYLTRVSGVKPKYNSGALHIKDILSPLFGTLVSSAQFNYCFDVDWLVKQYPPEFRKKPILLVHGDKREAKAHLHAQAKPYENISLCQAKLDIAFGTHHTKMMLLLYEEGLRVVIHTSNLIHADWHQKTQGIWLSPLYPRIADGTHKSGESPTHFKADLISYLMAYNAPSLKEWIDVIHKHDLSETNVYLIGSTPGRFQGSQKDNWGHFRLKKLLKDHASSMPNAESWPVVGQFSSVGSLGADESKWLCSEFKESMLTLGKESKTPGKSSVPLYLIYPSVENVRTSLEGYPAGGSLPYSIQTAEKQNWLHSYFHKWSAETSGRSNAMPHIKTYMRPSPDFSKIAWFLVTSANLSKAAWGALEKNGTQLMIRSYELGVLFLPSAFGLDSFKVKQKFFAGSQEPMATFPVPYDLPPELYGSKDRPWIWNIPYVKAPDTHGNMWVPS
# Sequence of UniProt P0A7A9 (whole entry, looked up): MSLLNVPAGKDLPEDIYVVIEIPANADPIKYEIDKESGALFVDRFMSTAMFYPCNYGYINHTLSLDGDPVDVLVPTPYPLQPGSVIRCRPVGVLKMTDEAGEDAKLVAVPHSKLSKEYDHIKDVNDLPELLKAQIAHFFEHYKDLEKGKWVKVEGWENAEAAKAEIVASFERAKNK
SMILES,tested on,test,system,setting,how to read,measurement,value
C/C=C(/C)C(=O)O[C@@H]1C=C(C)CC[C@]2(O)[C@@H](C(C)C)CC(=O)[C@]12C,Helicobacter pylori,"microbial growth, broth dilution",,62.5 µg/mL,,inhibition,0%
Cn1ncc2cc(-c3cncc(Cl)c3N3CCC4(CCNC4=O)CC3)ccc21,LS174T,"microarray, measured: PAH",,"concentration not given, 24 h",baseline: untreated cells,fold change in expression,2.03
c1ccc(-c2n[nH]cc2-c2ccnc3ccccc23)nc1,MCK1 (Candida albicans),"kinase binding, MIB/MS competition",Candida albicans lysate,10 µM,baseline: DMSO,log2 fold change,-0.08
CC=C(C)C(=O)OC1CC2C(C=C(C)C3C(OC(C)=O)CC(=O)C13C)OC(=O)C2C (centres unmarked),Helicobacter pylori,"microbial growth, broth dilution",,0.24 µg/mL,,inhibition,0%
C=CC(=O)N1[C@@H](c2ccc3c(c2)OCO3)c2[nH]c3ccccc3c2C[C@H]1C(=O)N1CCN(C)CC1,CCNE1 WT-3xFLAG:CDK2 complex,"co-IP TMT proteomics, measured: TUBA1A",HEK-293T,"20 µM, 6 h",baseline: DMSO,log2 fold change,0.08
CN(C)c1cc(N)c2cc(Cl)ccc2n1,"ppa (Escherichia coli, UniProt P0A7A9)","inhibitor, counter-screen, coupling enzyme alone",,,,IC50,40.3 µM
COc1cc(O)ccc1CCC(c1ccc(O)cc1)c1cc2c(c(C)c1O)OC(c1ccc(O)cc1)CC2 (mixture of isomers),,measured: PGF2α,human whole blood,"0.3 µM, together with: Escherichia coli",,amount,596 ± 279 pg/mL blood
C=C(NC(=O)c1csc(-c2nc3c(cc2O)-c2nc(cs2)C(=O)NC(C(C)O)C(=O)NC(=C(C)OC)c2nc(cs2)C(=O)NC2c4nc(cs4)C(=O)NC(COC(=O)c4c5c6c(cccc6n4O)COC(=O)C(OC4CC(C)(O)C(N(C)C)C(C)O4)C2OC5)c2nc-3cs2)n1)C(N)=O (centres unmarked),Streptococcus pneumoniae,,"-25, immunocompromised mice, lung","32 mg/kg/day thrice daily, 24 h post-dose",,lung bacterial load,3.57 log10 CFU/lung
COC1CN([C@H]2CC[C@H]([C@@]3(C)Oc4c(Cl)cc(C(=O)NCc5c(SC)cc(C)[nH]c5=O)c(C)c4O3)CC2)C1,,"RNA-seq, measured: IL18R1","human, whole blood","dose not given, 24 h",baseline: pretreatment baseline,log2 fold change,1.43
CC(=O)OC[C@H]1O[C@@H](Sc2sc(C(=O)c3ccc(Cl)cc3)c(N)c2-c2nc3ccccc3s2)[C@H](OC(C)=O)[C@@H](OC(C)=O)[C@H]1OC(C)=O,human adenovirus 7,plaque reduction,,"non-toxic dose NG, mean over three titres",,viral reduction,0%
C=CC(=O)Nc1cccc(Cn2ncc3cnc(Nc4cnn(CCOC)c4)nc32)c1,DCAMKL3 human,"binding, KINOMEscan",,100 nM,lower = stronger binding,percent of control,100%
CNS(=O)(=O)Nc1nccc(Cc2c(C)c3ccc(Oc4ncccc4F)cc3oc2=O)c1F,KYSE-450,cell viability,,7 days,,IC50,> 1 µM
Cc1ncsc1-c1ccc(C(C)NC(=O)C2CC(O)CN2C(=O)C(NC(=O)CCCCCCCCCCN2CCCC(Nc3ncc(Cl)c(Nc4ccccc4S(=O)(=O)C(C)C)n3)C2)C(C)(C)C)cc1 (centres unmarked),22Rv1,"RNA-seq, measured: SPRY4 mRNA",,concentration not given,baseline: DMSO,log2 fold change,-1.23
COc1cc([N+](=O)[O-])ccc1C=NOCc1ccc(-c2nc3cc(-c4ccccc4)ccn3c2Nc2ccc(C(=O)O)cc2)cc1,TDP1,"enzyme activity, inhibitor",,"100 µM, unpurified compound",,inhibition,41.5%
CN1CCCNC(=O)c2cccc(c2)C(=O)NCCCN(C)CCCNc2cccc3c2C(=O)c2cccc(c2C3=O)NCCC1,SAS,"RNA-Seq, measured: EPHB2 mRNA",,"1 µM, 6 h",baseline: untreated cells,log2 fold change,-0.702
CCN(CC)CC(=O)Nc1cccc(-n2cc(-c3ccc4ccc(-c5cn(-c6cccc(NC(=O)CN(CC)CC)c6)nn5)cc4c3)nn2)c1,RCC4,"PCR angiogenesis array, measured: EPHB4",,"5 x IC50, 6 h, normoxia",baseline: untreated,fold regulation,-1.06
CO[C@@H]1OC[C@@H](O)[C@H](O)[C@H]1O,Helicobacter pylori,"microbial growth, broth dilution",,7.81 µg/mL,,inhibition,0%
Cn1c(C=NOCc2ccc3nc(-c4ccccc4)c(Nc4ccc(C(=O)O)cc4)n3c2)c(Cl)c2ccccc21 (mixture of isomers),TDP1,"enzyme activity, inhibitor",,"100 µM, unpurified compound",,inhibition,32.3%
CC(C)(C)NCC(SS(=O)(=O)O)c1ccccc1 (centres unmarked),Schistosoma mansoni,,mice,"600 mg/kg single dose, 1248 h, dosed day 7, perfused 52",baseline: vehicle,female worm burden reduction,38%
Nc1ncc(-c2cc(-c3cnn(CC(F)(F)F)c3)ncc2F)nc1C(=O)NC1CNCC(F)C1 (centres unmarked),MAP4K2,KINOMEscan,,1 µM,baseline: DMSO control,remaining binding,100%

# For quick reference, copied from above:
SMILES,tested on,test,system,setting,how to read,measurement,value
COC1CN([C@H]2CC[C@H]([C@@]3(C)Oc4c(Cl)cc(C(=O)NCc5c(SC)cc(C)[nH]c5=O)c(C)c4O3)CC2)C1,,"RNA-seq, measured: IL18R1","human, whole blood","dose not given, 24 h",baseline: pretreatment baseline,log2 fold change,1.43
Nc1ncc(-c2cc(-c3cnn(CC(F)(F)F)c3)ncc2F)nc1C(=O)NC1CNCC(F)C1 (centres unmarked),MAP4K2,KINOMEscan,,1 µM,baseline: DMSO control,remaining binding,100%
